Results gathered from unrelated publications.
Each line is one published result; not all experiments were run side by side.

Compound	target or system	assay	system	conditions	how to read	quantity	value
Nc1ncc(-c2nc(N3CCOCC3)nc(N3CCOCC3)n2)c(C(F)F)n1	SW-620			72 h		GI50	300 nM
S=P1(c2ccccc2)CCCCC1	SW-620	MTT		72 h	reference: IC50 HaCaT over IC50 SW-620	selectivity index	1
COc1c(C)c2c(c(O)c1C/C=C(\C)CCC(=O)O)C(=O)OC2	SW-620	cell proliferation	colon cancer			IC50	347 nM
COc1cc(CCC[P+](c2ccccc2)(c2ccccc2)c2ccccc2)c(OC)c2c1OCO2.[I-]	SW-620	SRB				GI50	-5.74 log M
O=C1CCP(=S)(c2ccccc2)CC1	SW-620	ELISA		concentration not given, at IC50	reference: untreated	IL-6 reduction	89.8%
CC(C)N1CCC(NC2CCN(c3cccc(-c4cc5cc(F)ccc5[nH]4)c3)CC2)CC1	SW-620					CC50	4170 nM
CNC(=O)c1cc(Oc2ccc(NC(=O)Nc3ccc(Cl)c(C(F)(F)F)c3)c(F)c2)ccn1	human coronavirus OC43	virus-induced cell killing	MRC-5	screen		maximum inhibition	10.2%
O=C1CCP(=[Se])(c2ccccc2)CC1	SW-620	MTT		72 h	reference: IC50 HaCaT over IC50 SW-620	selectivity index	1
Cn1cncc1C1=CN(c2ncnc3[nH]cnc23)CCS1	SW-620			colon cancer		CC50	> 200000 nM
CCN(CC)c1ccc(C=NNC(=O)CSc2nc3ccccc3c(=O)n2Cc2ccc(S(N)(=O)=O)cc2)c(O)c1	SW-620	NCI five-dose screen				CC50	> 100000 nM
COc1c(CCC[P+](c2ccccc2)(c2ccccc2)c2ccccc2)cc2c(c1OC)OCO2.[I-]	SW-620	SRB				LC50	> -4 log M
CCc1c2c(nc3ccc(OC(=O)N4CCC(N5CCCCC5)CC4)cc13)-c1cc3c(c(=O)n1C2)COC(=O)[C@]3(O)CC	human coronavirus OC43	virus-induced cell killing	MRC-5	maximum over 10 doses		maximum inhibition	0%

Repeated from above:
Compound	target or system	assay	system	conditions	how to read	quantity	value
COc1c(C)c2c(c(O)c1C/C=C(\C)CCC(=O)O)C(=O)OC2	SW-620	cell proliferation	colon cancer			IC50	347 nM
COc1cc(CCC[P+](c2ccccc2)(c2ccccc2)c2ccccc2)c(OC)c2c1OCO2.[I-]	SW-620	SRB				GI50	-5.74 log M
